Assay results gathered from unrelated publications.
A part holds a random share of what one study measured. Several values in a cell are separate wells, animals, samples, runs or records.
UniProt Q02156, sequence (whole entry, looked up): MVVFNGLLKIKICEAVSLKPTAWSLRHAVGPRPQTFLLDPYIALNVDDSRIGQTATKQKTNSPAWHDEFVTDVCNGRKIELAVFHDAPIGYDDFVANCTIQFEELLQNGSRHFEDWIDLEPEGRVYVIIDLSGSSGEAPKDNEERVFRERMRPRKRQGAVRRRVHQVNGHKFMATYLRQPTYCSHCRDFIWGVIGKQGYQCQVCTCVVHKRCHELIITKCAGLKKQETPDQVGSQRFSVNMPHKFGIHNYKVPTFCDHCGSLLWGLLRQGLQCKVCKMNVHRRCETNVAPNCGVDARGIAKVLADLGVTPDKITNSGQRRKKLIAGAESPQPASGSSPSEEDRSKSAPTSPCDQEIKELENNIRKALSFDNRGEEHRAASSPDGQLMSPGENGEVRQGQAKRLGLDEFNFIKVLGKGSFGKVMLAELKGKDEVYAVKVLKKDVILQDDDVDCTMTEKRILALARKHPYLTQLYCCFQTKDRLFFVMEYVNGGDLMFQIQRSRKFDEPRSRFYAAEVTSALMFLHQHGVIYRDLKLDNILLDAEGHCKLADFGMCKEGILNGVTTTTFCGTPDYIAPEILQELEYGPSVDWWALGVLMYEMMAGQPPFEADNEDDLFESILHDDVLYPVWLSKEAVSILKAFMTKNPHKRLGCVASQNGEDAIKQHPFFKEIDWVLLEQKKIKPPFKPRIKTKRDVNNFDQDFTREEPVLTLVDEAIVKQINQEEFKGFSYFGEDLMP
UniProt Q9BZL6, sequence (whole entry, looked up): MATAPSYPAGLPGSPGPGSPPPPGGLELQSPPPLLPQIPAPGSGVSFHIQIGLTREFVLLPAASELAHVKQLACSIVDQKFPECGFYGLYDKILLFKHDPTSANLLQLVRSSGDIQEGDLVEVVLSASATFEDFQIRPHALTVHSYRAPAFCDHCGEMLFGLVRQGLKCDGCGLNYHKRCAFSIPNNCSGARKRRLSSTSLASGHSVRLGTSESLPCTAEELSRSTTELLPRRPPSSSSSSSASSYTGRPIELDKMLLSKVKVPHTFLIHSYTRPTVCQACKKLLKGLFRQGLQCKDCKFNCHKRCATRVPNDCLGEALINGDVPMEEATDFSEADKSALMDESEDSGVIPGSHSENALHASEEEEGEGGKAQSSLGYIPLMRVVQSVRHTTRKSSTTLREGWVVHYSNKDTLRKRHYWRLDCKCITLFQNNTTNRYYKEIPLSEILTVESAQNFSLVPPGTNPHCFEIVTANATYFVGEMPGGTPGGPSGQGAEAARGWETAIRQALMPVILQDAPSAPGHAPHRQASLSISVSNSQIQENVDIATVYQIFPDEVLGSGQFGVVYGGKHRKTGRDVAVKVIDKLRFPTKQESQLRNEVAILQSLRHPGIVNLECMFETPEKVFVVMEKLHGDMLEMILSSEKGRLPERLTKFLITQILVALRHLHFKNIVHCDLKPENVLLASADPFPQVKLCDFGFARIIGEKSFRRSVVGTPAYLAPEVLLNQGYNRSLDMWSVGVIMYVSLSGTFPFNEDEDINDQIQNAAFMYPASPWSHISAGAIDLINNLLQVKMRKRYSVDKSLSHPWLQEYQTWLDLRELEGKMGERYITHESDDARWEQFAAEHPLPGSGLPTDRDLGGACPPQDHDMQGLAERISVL
UniProt O00750, sequence (whole entry, looked up): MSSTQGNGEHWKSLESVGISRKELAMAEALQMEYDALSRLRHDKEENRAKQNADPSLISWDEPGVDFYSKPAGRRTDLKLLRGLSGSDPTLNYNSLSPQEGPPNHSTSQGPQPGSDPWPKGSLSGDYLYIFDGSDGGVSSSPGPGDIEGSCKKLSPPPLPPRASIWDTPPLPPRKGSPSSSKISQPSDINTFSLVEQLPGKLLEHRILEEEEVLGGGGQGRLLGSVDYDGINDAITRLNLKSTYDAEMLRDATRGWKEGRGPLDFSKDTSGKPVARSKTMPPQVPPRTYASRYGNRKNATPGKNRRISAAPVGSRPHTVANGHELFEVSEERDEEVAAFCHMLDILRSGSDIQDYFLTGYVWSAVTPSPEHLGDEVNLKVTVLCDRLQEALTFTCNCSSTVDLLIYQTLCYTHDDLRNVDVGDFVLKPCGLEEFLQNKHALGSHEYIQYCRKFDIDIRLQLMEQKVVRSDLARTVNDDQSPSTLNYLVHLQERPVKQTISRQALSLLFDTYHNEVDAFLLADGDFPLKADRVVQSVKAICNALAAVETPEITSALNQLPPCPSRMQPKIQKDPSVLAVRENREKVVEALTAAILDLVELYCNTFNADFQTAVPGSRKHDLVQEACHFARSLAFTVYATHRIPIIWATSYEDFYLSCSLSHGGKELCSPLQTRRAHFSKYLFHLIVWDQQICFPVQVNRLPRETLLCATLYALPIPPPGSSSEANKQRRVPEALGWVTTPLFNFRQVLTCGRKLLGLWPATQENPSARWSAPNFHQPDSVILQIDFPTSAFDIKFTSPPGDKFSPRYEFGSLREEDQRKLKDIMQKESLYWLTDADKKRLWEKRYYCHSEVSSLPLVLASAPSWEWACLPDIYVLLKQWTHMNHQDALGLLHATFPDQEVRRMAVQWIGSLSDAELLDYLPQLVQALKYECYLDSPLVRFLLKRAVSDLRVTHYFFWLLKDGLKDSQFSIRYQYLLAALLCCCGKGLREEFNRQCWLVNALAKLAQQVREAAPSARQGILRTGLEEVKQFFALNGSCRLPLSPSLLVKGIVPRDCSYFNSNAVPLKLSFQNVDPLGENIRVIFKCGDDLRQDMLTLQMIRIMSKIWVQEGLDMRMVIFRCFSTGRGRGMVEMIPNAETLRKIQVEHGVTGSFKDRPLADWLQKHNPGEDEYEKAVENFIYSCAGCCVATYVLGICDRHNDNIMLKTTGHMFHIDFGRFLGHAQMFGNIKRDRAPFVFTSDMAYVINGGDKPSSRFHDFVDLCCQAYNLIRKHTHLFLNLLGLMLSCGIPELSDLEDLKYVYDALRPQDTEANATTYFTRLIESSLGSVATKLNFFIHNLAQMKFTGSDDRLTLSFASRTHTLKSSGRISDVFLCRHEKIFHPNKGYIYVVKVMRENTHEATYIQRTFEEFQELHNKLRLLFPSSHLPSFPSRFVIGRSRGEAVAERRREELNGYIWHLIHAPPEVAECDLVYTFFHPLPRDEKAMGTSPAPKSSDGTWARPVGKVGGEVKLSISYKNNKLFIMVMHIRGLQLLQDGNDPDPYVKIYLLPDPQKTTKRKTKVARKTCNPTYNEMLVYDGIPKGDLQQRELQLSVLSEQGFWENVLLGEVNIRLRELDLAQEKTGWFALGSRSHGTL
UniProt Q13557, sequence (whole entry, looked up): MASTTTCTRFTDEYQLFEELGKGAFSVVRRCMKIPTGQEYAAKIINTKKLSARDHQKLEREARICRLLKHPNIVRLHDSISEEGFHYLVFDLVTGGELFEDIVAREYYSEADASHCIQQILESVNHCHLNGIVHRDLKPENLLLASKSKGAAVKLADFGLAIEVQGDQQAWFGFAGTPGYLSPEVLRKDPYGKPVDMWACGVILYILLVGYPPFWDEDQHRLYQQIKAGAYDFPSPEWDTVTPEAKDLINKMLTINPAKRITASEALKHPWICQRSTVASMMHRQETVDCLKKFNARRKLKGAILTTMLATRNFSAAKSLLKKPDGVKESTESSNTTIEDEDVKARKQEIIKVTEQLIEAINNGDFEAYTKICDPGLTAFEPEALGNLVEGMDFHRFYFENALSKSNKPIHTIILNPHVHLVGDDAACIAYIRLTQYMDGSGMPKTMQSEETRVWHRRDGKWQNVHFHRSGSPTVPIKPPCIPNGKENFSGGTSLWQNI
UniProt O00141, sequence (whole entry, looked up): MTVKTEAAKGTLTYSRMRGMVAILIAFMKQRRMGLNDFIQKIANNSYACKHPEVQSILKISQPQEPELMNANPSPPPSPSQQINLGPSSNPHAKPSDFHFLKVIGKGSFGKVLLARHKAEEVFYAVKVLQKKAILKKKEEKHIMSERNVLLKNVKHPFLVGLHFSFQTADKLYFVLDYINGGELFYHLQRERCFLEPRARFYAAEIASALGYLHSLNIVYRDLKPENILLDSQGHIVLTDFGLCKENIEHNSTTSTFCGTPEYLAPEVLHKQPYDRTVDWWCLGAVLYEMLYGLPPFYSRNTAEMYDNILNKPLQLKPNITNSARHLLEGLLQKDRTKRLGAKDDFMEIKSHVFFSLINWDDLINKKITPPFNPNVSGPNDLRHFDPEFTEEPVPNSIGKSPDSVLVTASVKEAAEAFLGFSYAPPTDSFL

Set 1
Cell line: HH
Concentration: 2 µM
Time: 48 h
Relative to: untreated
Measurement: viability
N#C/C(=C\c1ccc(O)c(O)c1)C(=O)NCc1ccccc1: 93.6%
COc1cc(Nc2c(C#N)cnc3cc(OCCCN4CCN(C)CC4)c(OC)cc23)c(Cl)cc1Cl: 103%
COc1cc2ncnc(Nc3ccc(O)c(Br)c3)c2cc1OC: 91.9%
CO[C@H]1C[C@@H]2CC[C@@H](C)[C@@](O)(O2)C(=O)C(=O)N2CCCC[C@H]2C(=O)O[C@H]([C@H](C)C[C@@H]2CC[C@@H](OCCO)[C@H](OC)C2)CC(=O)[C@H](C)/C=C(\C)[C@@H](O)[C@@H](OC)C(=O)[C@H](C)C[C@H](C)/C=C/C=C/C=C/1C: 56.6%
CSc1cccc(Nc2ncc3cc(-c4c(Cl)cccc4Cl)c(=O)n(C)c3n2)c1: 95.9%
CC[C@H](Nc1ncnc2[nH]cnc12)c1nc2cccc(F)c2c(=O)n1-c1ccccc1: 86.4%
Cc1cnc(Nc2ccc(N3CCN(C)CC3)cc2)nc1Nc1cccc(S(=O)(=O)NC(C)(C)C)c1: 53.9%
CN(c1ncccc1CNc1nc(Nc2ccc3c(c2)CC(=O)N3)ncc1C(F)(F)F)S(C)(=O)=O: 86%

Set 2
Structure (SMILES): CCCNC(=O)Nc1ccc(Oc2ncnc3cc(OC)c(OC)cc23)cc1Cl
Observed: enzyme activity
Action: inhibitor
Concentration: 0.5 µM
Relative to: control
Measurement: remaining activity
Protein kinase C gamma type (PRKCG, Homo sapiens, UniProt P05129): 120%
Tyrosine-protein kinase CSK (CSK, Homo sapiens, UniProt P41240): 100%
G protein-coupled receptor kinase 6 (GRK6, Homo sapiens, UniProt P43250): 95%
Protein kinase C epsilon type (PRKCE, Homo sapiens, UniProt Q02156): 96.8%
Receptor-type tyrosine-protein kinase FLT3 (FLT3, Homo sapiens, UniProt P36888): 82.1%
Ribosomal protein S6 kinase beta-1 (RPS6KB1, Homo sapiens, UniProt P23443): 90.6%
Serine/threonine-protein kinase pim-2 (PIM2, Homo sapiens, UniProt Q9P1W9): 101%
Serine/threonine-protein kinase Sgk1 (SGK1, Homo sapiens, UniProt O00141): 96.2%

Set 3
Structure (SMILES): CCCOc1ccc([C@@H]2[C@@H](C(=O)O)[C@H](c3ccc4c(c3)OCO4)CN2CC(=O)Nc2c(CC)cccc2CC)cc1
Observed: cell-free assay
Method: competition with immobilised ligand
Concentration: 1 µM
Measurement: remaining binding
Tyrosine-protein kinase JAK1, JH2 (JAK1, Homo sapiens, UniProt P23458): 88%
Phosphatidylinositol 4,5-bisphosphate 3-kinase catalytic subunit beta isoform (PIK3CB, Homo sapiens, UniProt P42338): 92%
Ephrin type-A receptor 7 (EPHA7, Homo sapiens, UniProt Q15375): 92%
Phosphatidylinositol 4-phosphate 3-kinase C2 domain-containing subunit beta (PIK3C2B, Homo sapiens, UniProt O00750): 94%
Calcium/calmodulin-dependent protein kinase type II subunit delta (CAMK2D, Homo sapiens, UniProt Q13557): 88%
Leucine-rich repeat serine/threonine-protein kinase 2 (LRRK2, Homo sapiens, UniProt Q5S007, G2019S): 84%
Dual specificity protein kinase CLK3 (CLK3, Homo sapiens, UniProt P49761): 93%
Cyclin-dependent kinase 11B (CDK11B, Homo sapiens, UniProt P21127): 94%
Ephrin type-A receptor 4 (EPHA4, Homo sapiens, UniProt P54764): 75%
Serine/threonine-protein kinase N1 (PKN1, Homo sapiens, UniProt Q16512): 100%
Serine/threonine-protein kinase D2 (PRKD2, Homo sapiens, UniProt Q9BZL6): 100%
Serine/threonine-protein kinase PLK2 (PLK2, Homo sapiens, UniProt Q9NYY3): 86%
Dual specificity protein kinase TTK (TTK, Homo sapiens, UniProt P33981): 100%
Phosphatidylinositol 4-kinase beta (PI4KB, Homo sapiens, UniProt Q9UBF8): 100%
Protein kinase C epsilon type (PRKCE, Homo sapiens, UniProt Q02156): 97%
Serine/threonine-protein kinase 16 (STK16, Homo sapiens, UniProt O75716): 87%
Mast/stem cell growth factor receptor Kit (KIT, Homo sapiens, UniProt P10721, D816V): 99%
Phosphatidylinositol 3-kinase catalytic subunit type 3 (PIK3C3, Homo sapiens, UniProt Q8NEB9): 88%
Calcium/calmodulin-dependent protein kinase type 1G (CAMK1G, Homo sapiens, UniProt Q96NX5): 89%

Set 4
Cell line: mouse MPNST tumor cells
Method: high-content immunofluorescence imaging
Measured: nuclear SOX9
Concentration: 10 µM
Time: 12 h
Setting: mean of 2 replicates
Relative to: DMSO control
Direction: higher = more nuclear SOX9
Measurement: nuclear SOX9 intensity
Nc1ncnc2c1ncn2C1OC(C(=O)N2CCN(CC(=O)Nc3cccc4c3CNC4=O)CC2)C(O)C1O (centres unmarked): 121 % of DMSO
CN1CCCN=C1/C=C/c1cccs1: 95 % of DMSO
CCCCC1C(=O)N(c2ccccc2)N(c2ccc(O)cc2)C1=O (centres unmarked): 121 % of DMSO and 158 % of DMSO
CC(=O)Oc1cc(C(F)(F)F)ccc1C(=O)O: 91.9 % of DMSO
O=C(Nc1ccc(C(O)(C(F)(F)F)C(F)(F)F)cc1)c1ccccc1Cl: 117 % of DMSO
CCN(CC)CCCCNc1ncc2cc(-c3c(Cl)cccc3Cl)c(NC(=O)NC(C)(C)C)nc2n1: 176 % of DMSO

A few entries again (set 3):
Calcium/calmodulin-dependent protein kinase type II subunit delta (CAMK2D, Homo sapiens, UniProt Q13557): 88%
Phosphatidylinositol 4-kinase beta (PI4KB, Homo sapiens, UniProt Q9UBF8): 100%
Serine/threonine-protein kinase 16 (STK16, Homo sapiens, UniProt O75716): 87%
Ephrin type-A receptor 4 (EPHA4, Homo sapiens, UniProt P54764): 75%
Cyclin-dependent kinase 11B (CDK11B, Homo sapiens, UniProt P21127): 94%
